# Results of several laboratories.
# Lines come from different studies, so protocols differ. ± gives the spread as reported.
Substance,organism,test,test system,setting,how to read,quantity,result
NC(=O)c1ncn([C@@H]2O[C@H](CO)[C@@H](O)[C@H]2O)n1,yellow fever virus,viral replication,BHK-21,72 h,,EC50,15 µM
O=C(c1cnn[nH]1)N1CCC(n2c(=O)[nH]c3ccccc32)CC1,Lassa mammarenavirus,viral replication,Huh-7,"10 µM, 72 h",,remaining activity,43%
CN1CCN(C(=O)c2cc3cc(Cl)ccc3[nH]2)CC1,Ebola virus Zaire,HIV/EBOV pseudovirion entry,A549,48 h,,IC50,16.6 ± 3.9 µM
Nc1ncnc2c([C@@H]3N[C@H](CO)[C@@H](O)[C@H]3O)c[nH]c12,Marburg virus,"viral replication, antibody staining","HeLa, Musoke","6.3 µM, 24 h",,infected cells,8.3%
COc1ccc(Nc2cc(C(=O)NCCCN(C)Cc3ccccc3)c3ccccc3n2)cc1,SARS-CoV-2,"cytopathic effect, cell-based CPE",USA_WA1/2020,"round 2, 5-point dilution",,efficacy,73.9%
O=C(Nc1ccc(N2CCCN(C(=O)c3cnccn3)CC2)nc1)c1ccccc1,Mycobacterium tuberculosis,bacterial growth,H37Ra-lux,168 h,,IC90,> 64 µM
Cc1ccc(CN2CCN(C)C(=O)[C@H](C)NC(=O)CN(C)C(=O)[C@@H](Cc3c[nH]c4ccccc34)NC(=O)c3csc(n3)[C@H](CC(C)C)NC(=O)C2)cc1,Lassa mammarenavirus,viral replication,Huh-7,concentration not given,,Emax,98.6%
COc1ccc(C#Cc2ccccc2)c(CCC(C)N(C)CCc2ccc(OC)c(OC)c2)c1 (centres unmarked),SARS-CoV-2,"viral replication, GFP plate reader screen",BetaCov/Belgium/GHB-03021/2020,cell-based,,EC50,4.27 µM
Cn1ccnc1-c1ccc(N2CCCC(CO)(Cc3ccccc3F)C2)nn1 (centres unmarked),Lassa mammarenavirus,viral replication,Huh-7,"10 µM, 72 h",,remaining activity,42%
COc1ccc(C[C@@H]2c3cc(Oc4cc(C[C@@H]5c6cc(O)c(OC)cc6CCN5C)ccc4O)c(OC)cc3CCN2C)cc1,SARS-CoV-2,viral replication,Vero E6,50 µM,relative to: mean of replicates,CPE inhibition,16.7%
CN(C)S(=O)(=O)NCC1CCOC2(CCN(C(=O)C3(c4ccccn4)CCCC3)CC2)C1 (centres unmarked),Venezuelan equine encephalitis virus,viral replication,,,,EC50,> 39.8 µM
CN(C)CCOC(C)(c1ccccc1)c1ccc(Cl)cc1 (centres unmarked),Marburg virus,pseudovirus entry,A549,,relative to: CC50 over IC50,selectivity index,9
CCn1nc(C)c(C(=O)NCc2ccc(-n3ccnc3C)cc2)c1C,Lassa mammarenavirus,viral replication,Huh-7,"10 µM, 72 h",,remaining activity,41%
CCn1c2ccccc2c2cc(CN3CCN(Cc4cccc(Cl)c4)CC3)ccc21,SARS-CoV-2,"cytopathic effect, cell-based CPE",USA_WA1/2020,,,AC50,14.1 µM
Cn1c(=O)ccc2ccc(F)c(CCNC[C@H]3CN(c4cnc5c(n4)NC(=O)CO5)C(=O)O3)c21,Bacillus anthracis,microbial growth,,,,MIC50,< 0.015 µg/mL
O=C1c2c(O)c(=O)ccn2N([C@@H]2c3ccccc3SCc3c2ccc(F)c3F)[C@@H]2COCCN12,Influenza A virus,viral replication,A(H9N2) A/quail/Bangladesh/30835/2016,mean,,EC50,0.00036 ± 6e-05 µM
O=C(NCc1cccs1)C1CCCN(Cc2cccc(-c3ccc(F)cc3F)c2)C1 (centres unmarked),SARS-CoV-2,cytopathic effect,USA_WA1/2020,"round 1, 5-point",,efficacy,82.7%
O=C(/C=C/c1ccc(O)c(O)c1/C=C/c1ccc(O)c(O)c1)O[C@H](Cc1ccc(O)c(O)c1)C(=O)O,SARS-CoV-2,viral replication,Vero E6,12.5 µM,relative to: mean of replicates,CPE inhibition,0%
O=C(CC1CCCCC1)Nc1ncc(Cc2cccc3ccccc23)s1,Histoplasma capsulatum,microbial growth,,,,MIC,0.6 to 1.3 µM
CC[C@H]1C[N@@]2CC[C@H]1C[C@H]2[C@H](O)c1ccnc2ccc(OCCC(C)C)cc12,SARS-CoV-2,"viral replication, GFP plate reader screen",,cell-based,,EC50,> 100 µM
Nc1ncnc2c1ncn2[C@@H]1O[C@@H]2COP(=O)(O)O[C@H]3[C@@H](O)[C@H](n4cnc5c(=O)[nH]cnc54)O[C@@H]3COP(=O)(O)O[C@H]2[C@H]1O,Chikungunya virus,"upregulated Reactome pathway, RNA sequencing, refers to: Cell Cycle (R-HSA-1640170)",HFF-1,,relative to: CHIKV-infected untreated,fold enrichment,1.73
CN1CCC(=C2c3ccccc3Oc3ccc(Cl)cc32)CC1,SARS-CoV-2,"viral replication, high-content imaging screen",,cell-based,,EC50,> 100 µM
CNC(=NCCSCc1csc(N=C(N)N)n1)NC#N,Ebola virus Zaire,HIV/EBOV pseudovirion entry,A549,48 h,,IC50,> 100 µM
[O-][N+]1=C(c2ccc(Cl)cc2)C2=NCCN2c2ccccc21,Clostridium perfringens,microbial growth,,,,MIC50,0.5 µg/mL
CCCSc1ccccc1N1CCN(CCCCn2c(=O)[nH]c3ccccc3c2=O)CC1,SARS-CoV-2,"viral replication, GFP plate reader screen",,cell-based,,EC50,9.12 µM
CCc1ccc(Sc2cc(C(=O)NCCCN3CCC(C)CC3)c3ccccc3n2)cc1,SARS-CoV-2,"cytopathic effect, cell-based CPE",USA_WA1/2020,,,AC50,7.94 µM
(S)-(+)-niguldipine hydrochloride,Ebola virus,virus-like particle entry,HeLa,concentration not given,,maximal inhibition,92%
CCCc1cnc(C)nc1N1C[C@@H]2NC(=O)CN(CCOC)C(=O)CCc3ccc(OC)c(c3)Oc3cccc(c3)CO[C@H]2C1,Lassa mammarenavirus,viral replication,Huh-7,"10 µM, 72 h",,remaining activity,51%
CN1CCCC(CN2c3ccccc3Sc3ccccc32)C1 (centres unmarked),SARS-CoV-2,"viral replication, high-content imaging screen",,cell-based,,EC50,> 100 µM
CCCCN(CCCNC(=O)c1cc(Nc2ccc(OC)c(OC)c2)nc2ccccc12)Cc1ccccc1,SARS-CoV-2,cytopathic effect,USA_WA1/2020,"round 2, 5-point",,efficacy,69.2%
COC(=O)[C@H]1[C@H]2C[C@@H]3c4[nH]c5ccccc5c4CCN3C[C@H]2C[C@@H](OC(=O)c2cc(OC)c(OC)c(OC)c2)[C@@H]1OC,SARS-CoV-2,"viral replication, GFP plate reader screen",BetaCov/Belgium/GHB-03021/2020,cell-based,,EC50,> 20 µM
Cc1ccc(N2CCC(NC(C)Cc3ncccc3C)CC2)cc1 (centres unmarked),Lassa mammarenavirus,viral replication,Huh-7,"10 µM, 72 h",,remaining activity,32%
COc1cc2c(cc1OCC1CC1)NC(=O)C21CCN(c2cc(NC3CC3)ncn2)CC1,SARS-CoV-2,cytopathic effect,USA_WA1/2020,"retest, 8-point, duplicates",,maximum response,57.5%
O=c1nc(NO)ccn1[C@@H]1O[C@H](CO)[C@@H](O)[C@H]1O,SARS-CoV-2 Washington strain,"viral replication, qRT-PCR",Calu-3,,,EC90,1.8 ± 0.7 µM
COc1cc2c(cc1OC)C(c1cccc(Cl)c1)=NN=C(C)C2,SARS-CoV-2,"viral replication, high-content imaging screen",,cell-based,,EC50,> 100 µM
Cc1ccc(Cn2cnc(-c3ccccc3)c2-c2nccn2C)c(F)c1F,Lassa mammarenavirus,viral replication,Huh-7,"10 µM, 72 h",,remaining activity,37%
Cc1c(CN2CCN(c3cccc(C(F)(F)F)c3)CC2)cc(-c2ccccc2)n1NC(=O)c1ccncc1,SARS-CoV-2,"viral replication, high-content imaging screen",,cell-based,,EC50,> 100 µM
O=C(CC1CCCCC1)Nc1ncc(Cc2ccccc2)s1,Histoplasma capsulatum,microbial growth,,,,MIC,1.3 to 2.5 µM
CCc1ccc(Sc2cc(C(=O)NCCCN3CCCC(C)C3)c3ccccc3n2)cc1 (centres unmarked),SARS-CoV-2,cytopathic effect,USA_WA1/2020,retest 8-point,,efficacy,86.6%
O=C(/C=C/C1CCCCC1)Nc1ncc(Cc2ccccc2)s1,Histoplasma capsulatum,microbial growth,,,,MIC,> 20 µM
O=C(Nc1ccc(N2CCCN(C(=O)c3cnccn3)CC2)nc1)c1cccc([N+](=O)[O-])c1,Mycobacterium tuberculosis,bacterial growth,H37Ra-lux,168 h,,IC90,> 64 µM
COc1ccc2cc1Oc1ccc(cc1)C[C@H]1c3c(cc4c(c3Oc3cc5c(cc3OC)CCN(C)[C@@H]5C2)OCO4)CCN1C,African swine fever virus,,,concentration not given,,p72 mRNA and protein,inhibited
CN(C)CCNC(=O)c1ccc2c(c1)C1(CCN(CC3CC3)C1)CN2Cc1ccccc1 (centres unmarked),SARS-CoV-2,"cytopathic effect, cell-based CPE",USA_WA1/2020,,,AC50,7.94 µM
CNC(=O)[C@@H](NC(=O)[C@H](CC(C)C)[C@H](O)C(=O)NO)C(C)(C)C,Daboia russelii,,C2C12,"100 µM, together with: Daboia russelii venom MP",relative to: venom alone,viability difference,-46.6%
CCN(CCO)CCCC(C)Nc1ccnc2cc(Cl)ccc12 (centres unmarked),SARS-CoV-2 Delta,viral replication,Vero,48 h,,IC50,22 µM
Cc1cnc(C(=O)N2CCCC(C(=O)Nc3ccc(-c4cccc(F)c4)cc3)C2)cn1 (centres unmarked),Lassa mammarenavirus,viral replication,Huh-7,"10 µM, 72 h",,remaining activity,39%
CCc1c(C(=O)C(N)=O)c2c(OCC(=O)O)cccc2n1Cc1ccccc1,Daboia russelii,,mouse,"intravenous, 120 µg/mouse, 24 h, drug mixture, together with: venom 2.5 x LD50 preincubated",,survival,40%

# For quick reference, copied from above:
Substance,organism,test,test system,setting,how to read,quantity,result
CNC(=O)[C@@H](NC(=O)[C@H](CC(C)C)[C@H](O)C(=O)NO)C(C)(C)C,Daboia russelii,,C2C12,"100 µM, together with: Daboia russelii venom MP",relative to: venom alone,viability difference,-46.6%
COc1cc2c(cc1OCC1CC1)NC(=O)C21CCN(c2cc(NC3CC3)ncn2)CC1,SARS-CoV-2,cytopathic effect,USA_WA1/2020,"retest, 8-point, duplicates",,maximum response,57.5%
CCc1c(C(=O)C(N)=O)c2c(OCC(=O)O)cccc2n1Cc1ccccc1,Daboia russelii,,mouse,"intravenous, 120 µg/mouse, 24 h, drug mixture, together with: venom 2.5 x LD50 preincubated",,survival,40%
O=C(CC1CCCCC1)Nc1ncc(Cc2ccccc2)s1,Histoplasma capsulatum,microbial growth,,,,MIC,1.3 to 2.5 µM
Cn1ccnc1-c1ccc(N2CCCC(CO)(Cc3ccccc3F)C2)nn1 (centres unmarked),Lassa mammarenavirus,viral replication,Huh-7,"10 µM, 72 h",,remaining activity,42%
O=C(Nc1ccc(N2CCCN(C(=O)c3cnccn3)CC2)nc1)c1ccccc1,Mycobacterium tuberculosis,bacterial growth,H37Ra-lux,168 h,,IC90,> 64 µM
CCN(CCO)CCCC(C)Nc1ccnc2cc(Cl)ccc12 (centres unmarked),SARS-CoV-2 Delta,viral replication,Vero,48 h,,IC50,22 µM
